Published values from different studies.
Lines come from different studies, so protocols differ. “And” joins repeats or separate records; there may be more than shown.
B1: MDM4 23-111, p53-binding domain (Homo sapiens, UniProt O15151); chain GPLGSQINQVRPKLPLLKILHAAGAQGEMFTVKEVMHYLGQYIMVKQLYDQQEQHMVYCGGDLLGELLGRQSFSVKDPSPLYDMLRKNLVTLAT
B2: dnaG P16 domain 453-597 (Geobacillus stearothermophilus, UniProt Q9X4D0); sequence looked up; chain AKKLLPAFQNAERLLLAHMMRSRDVALVVQERIGGRFNIEEHRALAAYIYAFYEEGHEADPGALISRIPGELQPLASDVSLLLIADDVSEQELEDYIRHVLNRPKWLMLKVKEQEKTEAERRKDFLTAARIAKEMIEMKKMLSSS
B3: HypB N-terminal extension 2-76 (Escherichia coli, UniProt P0AAN3); chain CTTCGCGEGNLYIEGDEHNPHSAFRSAPFAPAARPKMKITGIKAPEFTPSQTEEGDLHYGHGEAGTHAPGMSQRRW
B4: PSMG4 1-123 (Homo sapiens, UniProt Q5JS54); chain MEGLVVAAGGDVSLHNFSARLWEQLVHFHVMRLTDSLFLWVGATPHLRNLAVAMCSRYDSIPVSTSLLGDTSDTTSTGLAQRLARKTNKQVFVSYNLQNTDSNFALLVENRIKEEMEAFPEKF
B5: cheW (Escherichia coli, UniProt P0A964); chain MTGMTNVTKLASEPSGQEFLVFTLGDEEYGIDILKVQEIRGYDQVTRIANTPAFIKGVTNLRGVIVPIVDLRIKFSQVDVDYNDNTVVIVLNLGQRVVGIVVDGVSDVLSLTAEQIRPAPEFAVTLSTEYLTGLGALGDRMLILVNIEKLLNSEEMALLDSAASEVA
B6: PTK2 1-101 (Homo sapiens, UniProt Q05397); sequence looked up; chain MAAAYLDPNLNHTPNSSTKTHLGTGMERSPGAMERVLKVFHYFESNSEPTTWASIIRHGDATDVRGIIQKIVDSHKVKHVACYGFRLSHLRSEEVHWLHVD
B7: FERMT2 1-105 (Homo sapiens, UniProt Q96AC1); sequence looked up; chain MALDGIRMPDGCYADGTWELSVHVTDLNRDVTLRVTGEVHIGGVMLKLVEKLDVKKDWSDHALWWEKKRTWLLKTHWTLDKYGIQADAKLQFTPQHKLLRLQLPN
B8: AZI2 1-75 (Homo sapiens, UniProt Q9H6S1); chain MDALVEDDICILNHEKAHKRDTVTPVSIYSGDESVASHFALVTAYEDIKKRLKDSEKENSLLKKRIRFLEEKLIA
B9: POL32 (Saccharomyces cerevisiae, UniProt P47110); sequence looked up; chain MDQKASYFINEKLFTEVKPVLFTDLIHHLKIGPSMAKKLMFDYYKQTTNAKYNCVVICCYKDQTIKIIHDLSNIPQQDSIIDCFIYAFNPMDSFIPYYDIIDQKDCLTIKNSYELKVSESSKIIERTKTLEEKSKPLVRPTARSKTTPEETTGRKSKSKDMGLRSTALLAKMKKDRDDKETSRQNELRKRKEENLQKINKQNPEREAQMKELNNLFVEDDLDTEEVNGGSKPNSPKETDSNDKDKNNDDLEDLLETTAEDSLMDVPKIQQTKPSETEHSKEPKSEEEPSSFIDEDGYIVTKRPATSTPPRKPSPVVKRALSSSKKQETPSSNKRLKKQGTLESFFKRKAK
B10: EIF5B 1076-1220 (Homo sapiens, UniProt O60841); sequence looked up; chain YKKQKQEEFKHIAVFPCKIKILPQYIFNSRDPIVMGVTVEAGQVKQGTPMCVPSKNFVDIGIVTSIEINHKQVDVAKKGQEVCVKIEPIPGESPKMFGRHFEATDILVSKISRQSIDALKDWFRDEMQKSDWQLIVELKKVFEII
B11: lpxC 1-305 (Escherichia coli, UniProt P0A725); chain MIKQRTLKRIVQATGVGLHTGKKVTLTLRPAPANTGVIYRRTDLNPPVDFPADAKSVRDTMLCTCLVNEHDVRISTVEHLNAALAGLGIDNIVIEVNAPEIPIMDGSAAPFVYLLLDAGIDELNCAKKFVRIKETVRVEDGDKWAEFKPYNGFSLDFTIDFNHPAIDSSNQRYAMNFSADAFMRQISRARTFGFMRDIEYLQSRGLCLGGSFDCAIVVDDYRVLNEDGLRFEDEFVRHKMLDAIGDLFMCGHNIIGAFTAYKSGHALNNKLLQAVLAKQEAWEYVTFQDDAELPLAFKAPSAVLA
B12: KAT7 474-611 (Homo sapiens, UniProt O95251); sequence looked up; chain CILTMPQYMRQGYGKMLIDFSYLLSKVEEKVGSPERPLSDLGLISYRSYWKEVLLRYLHNFQGKEISIKEISQETAVNPVDIVSTLQALQMLKYWKGKHLVLKRQDLIDEWIAKEAKRSNSNKTMDPSCLKWTPPKGT
B13: STBD1 200-358 (Homo sapiens, UniProt O95210); chain HEEWEMVPRHSSWGDVGVGGSLKAPVLNLNQGMDNGRSTLVEARGQQVHGKMERVAVMPAGSQQVSVRFQVHYVTSTDVQFIAVTGDHECLGRWNTYIPLHYNKDGFWSHSIFLPADTVVEWKFVLVENGGVTRWEECSNRFLETGHEDKVVHAWWGIH
B14: NFE2L2 99-160 (Homo sapiens, UniProt Q16236); chain GSANYSQVAHIPKSDALYFDDCMQLLAQTFPFVDDNEVSSATFQSLVPDIPGHIESPVFIATN
B15: NUP60 200-318 (Saccharomyces cerevisiae, UniProt P39705); sequence looked up; chain SMNTTLGSIGSRKYSFNYSSLPSPYKTTVYRYSAAKKIPDTYTANTSAQSIASAKSVRSGVSKSAPSKKISNTAAALVSLLDENDSKKNNAASELANPYSSYVSQIRKHKRVSPNAAPR
B16: PAP2 D236A/D238A (Saccharomyces cerevisiae, UniProt P53632); sequence looked up; chain MGAKSVTASSSKKIKNRHNGKVKKSKKIKKVRKPQKSISLNDENEVEILPSRNEQETNKLPKDHVTADGILVLEHKSDDDEGFDVYDGHFDNPTDIPSTTEESKTPSLAVHGDEKDLANNDDFISLSASSEDEQAEQEEEREKQELEIKKEKQKEILNTDYPWILNHDHSKQKEISDWLTFEIKDFVAYISPSREEIEIRNQTISTIREAVKQLWPDADLHVFGSYSTDLYLPGSAIACVVTSELGGKESRNNLYSLASHLKKKNLATEVEVVAKARVPIIKFVEPHSGIHIDVSFERTNGIEAAKLIREWLDDTPGLRELVLIVKQFLHARRLNNVHTGGLGGFSIICLVFSFLHMHPRIITNEIDPKDNLGVLLIEFFELYGKNFGYDDVALGSSDGYPVYFPKSTWSAIQPIKNPFSLAIQDPGDESNNISRGSFNIRDIKKAFAGAFDLLTNRCFELHSATFKDRLGKSILGNVIKYRGKARDFKDERGLVLNKAIIENENYHKKRSRIIHDEDFAEDTVTSTATATTTDDDYEITNPPAKKAKIEEKPESEPAKRNSGETYITVSSEDDDEDGYNPYTL
B17: EFR3A 721-791 I763A (Homo sapiens, UniProt Q14156); chain SNTEEITFEALKKAIDTSGMEEQEKEKRRLVIEKFQKAPFEEAAAQCESKANLLHDRLAQILELTIRPPPS

`B1` — result for binding: “binds” (MDM4 170-260 W239S/F240S (Homo sapiens, UniProt O15151); NMR titration).
`SNEWILPRGPYK (engineered peptide)` — result for binding: “binds” (EPHB2 19-543 (Homo sapiens, UniProt P29323); SPR; peptide).
`GSGAGICTIV` gave a binding intensity of 0.225 (human SCRIB PDZ3-4 tandem (MBP fusion); automated holdup; peptide, purified PDZ protein; concentration not given, unit not given; relative to: biotin control resin, higher = stronger binding).
`galanin` gave a bromination conversion of 21.2% and 21.6% (rebH (Lentzea aerocolonigenes, UniProt Q8KHZ8, A442V/K145M/M71V/N467T/N470S/S2P); substrate, HPLC EIC).
For `B2 (dnaG P16 domain 453-597)`, binding read “binds” (dnaB (Geobacillus stearothermophilus, UniProt Q9X4C9); NMR titration).
`SKKVTRRPKASDYQRL (TGOLN1 YxxΦ peptide; N-terminal oleic acid/Lys(FITC)2)`: binding “binds” (AP2A2/AP2B1/AP2M1/AP2S1 core, lacking appendage domains (Mus musculus); liposome binding; peptide, liposomes).
`B3 (HypB N-terminal extension 2-76)` — result for binding: “binds” (slyD (Escherichia coli, UniProt P0A9K9); SEC).
The binding intensity of `GSGAGIATEV` is reported as 0.288 (human MAGI1-3/6 PDZ construct (MBP fusion); automated holdup; peptide, crude extract; concentration not given, uncorrected, unit not given; relative to: biotin control resin, higher = stronger binding).
`B4 (PSMG4 1-123)` — result for binding: “binds” (PSMA7 (Homo sapiens, UniProt O14818); cryo-EM).
`GCN5 (Oryza sativa, UniProt Q338B9)` — result for binding: “binds” (PK1 (Oryza sativa japonica, UniProt Q2RAK2); pull-down).
`B5 (cheW)`: binding “binds” (cheA 1-654 (Escherichia coli, UniProt P07363); HDX-MS; without nucleotide).
For `B6 (PTK2 1-101)`, binding read “binds” (PRKCQ (Homo sapiens, UniProt Q04759); pull-down).
`B7 (FERMT2 1-105)` — result for binding: “binds” (PXN 485-605 (Homo sapiens, UniProt P49023-3); NMR titration).
`GSYPRPRPRPRPRPR (poly-PR (PR)6)`: binding “binds” (NPM1 (Homo sapiens, UniProt P06748); droplet dissolution, solution turbidity; peptide).
`B8 (AZI2 1-75)`: binding “binds” (RB1CC1 1286-1594 (Homo sapiens, UniProt Q8TDY2); SEC).
`B9 (POL32)` — result for binding: “binds” (POL3 (Saccharomyces cerevisiae, UniProt P15436); mass photometry).
`B10 (EIF5B 1076-1220)`: binding “binds” (EIF5 196-431 (Homo sapiens, UniProt P55010); NMR titration).
`B11 (lpxC 1-305)` — result for binding: “binds” (lapB 21-389 W377G (Escherichia coli, UniProt P0AB58); pull-down).
Under cross-linked residues, `GPR39 (Homo sapiens, UniProt O43194)` is recorded as “K61 to K476” (FGA (Homo sapiens, UniProt P02671); cross-linking MS; together with: DSSO).
`B12 (KAT7 474-611)`: binding “binds” (KAT8 (Homo sapiens, UniProt Q9H7Z6); pull-down).
`MSEKPKVYQGVRVKITVKELLQQRRAHQAASGGTRSGG (POU2AF3 1-38 (Homo sapiens, UniProt A8K830-5); sequence looked up)` — result for binding: “binds” (POU2F3 183-341 (Homo sapiens, UniProt Q9UKI9-1); crystal structure).
`B13 (STBD1 200-358)`: binding “binds” (GABARAPL1 fragment (Homo sapiens); ITC).
`B14 (NFE2L2 99-160)` — result for binding: “binds” (EP300 TAZ2 1723-1812 x (Homo sapiens, UniProt Q09472); circular dichroism).
`B15 (NUP60 200-318)`: binding “binds” (MLP1 382-620 (Saccharomyces cerevisiae, UniProt Q02455); pull-down).
Under binding, `B16 (PAP2 D236A/D238A)` is recorded as “binds” (MTR4 (Saccharomyces cerevisiae, UniProt P47047); HDX-MS).
For `B17 (EFR3A 721-791 I763A)`, binding read “binds” (TTC7B/FAM126A FAM126A 1-308 (Homo sapiens); BLI).

For quick reference, copied from above:
`GCN5 (Oryza sativa, UniProt Q338B9)` — result for binding: “binds” (PK1 (Oryza sativa japonica, UniProt Q2RAK2); pull-down).
`B11 (lpxC 1-305)` — result for binding: “binds” (lapB 21-389 W377G (Escherichia coli, UniProt P0AB58); pull-down).
`B3 (HypB N-terminal extension 2-76)` — result for binding: “binds” (slyD (Escherichia coli, UniProt P0A9K9); SEC).
`MSEKPKVYQGVRVKITVKELLQQRRAHQAASGGTRSGG (POU2AF3 1-38 (Homo sapiens, UniProt A8K830-5); sequence looked up)` — result for binding: “binds” (POU2F3 183-341 (Homo sapiens, UniProt Q9UKI9-1); crystal structure).
